{"data": "Results pooled from the literature", "note": "Parts stem from different laboratories: compare values within a part only. Substitutions count along the parent as printed.", "sequence of UniProt O96017 (whole entry, looked up)": "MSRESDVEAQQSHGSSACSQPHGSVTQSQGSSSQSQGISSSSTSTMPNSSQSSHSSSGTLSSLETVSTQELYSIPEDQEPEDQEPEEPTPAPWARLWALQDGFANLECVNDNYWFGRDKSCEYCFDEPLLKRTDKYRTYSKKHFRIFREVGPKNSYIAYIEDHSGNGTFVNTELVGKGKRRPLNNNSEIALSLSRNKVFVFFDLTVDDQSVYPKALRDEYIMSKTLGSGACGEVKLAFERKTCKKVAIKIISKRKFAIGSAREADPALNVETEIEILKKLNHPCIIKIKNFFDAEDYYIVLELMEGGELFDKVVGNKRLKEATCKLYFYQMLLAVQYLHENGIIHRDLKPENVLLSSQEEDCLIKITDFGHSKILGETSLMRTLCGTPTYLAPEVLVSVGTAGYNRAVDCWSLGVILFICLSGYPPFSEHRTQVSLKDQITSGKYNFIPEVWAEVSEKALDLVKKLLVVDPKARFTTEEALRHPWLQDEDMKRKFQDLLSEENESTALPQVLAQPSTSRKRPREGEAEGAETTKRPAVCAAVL"}
{"data": "Set 1", "target": "RNA binding protein fox-1 homolog 2, RRM domain, GST-SBP tag (RBFOX2, Homo sapiens, UniProt O43251-10, residues 100-194)", "technique": "RNA Bind-n-Seq", "molecule type": "RNA", "matrix": "in vitro", "tested at": "365 nM", "notes": "natural RNA segment, single round, ends assumed", "relative to": "no-protein control", "direction": "higher = stronger binding", "shared flanks, not repeated": "GGGAGUUCUACAGUCCGACGAUC … UGGAAUUCUCGGGUGCCAA", "Target sequence (chain)": "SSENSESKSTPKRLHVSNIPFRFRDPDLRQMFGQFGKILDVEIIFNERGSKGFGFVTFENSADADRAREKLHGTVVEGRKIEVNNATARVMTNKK"}
{"Oligonucleotide": "ACAUGAAUUACCAAAGAAAGCACCUUCUUGGCCUGACAGACCAUUGGUGGGGCUGGCACGAAUCCAGAUCUGGAUCCUACAUCUGUUGGGUCUUAGGCCUCCUUCCCUCC", "RBNS enrichment (R)": 0.385}
{"Oligonucleotide": "AGAGAAAGAAAUGCUGUGAGCACAUGACAAAAUAAAAUCAAAUAAAAUGGAUGAUUCAGCUUAAGUGACUUUCUCCCCCCUCUCCCUUCUGAAUUCAGAUGAGAGUCACG", "RBNS enrichment (R)": 0.355}
{"Oligonucleotide": "UUUGCAAAGCAGUGCAGAAAACUAUAAUCAAAUGUGACAUGUCUAUAAAAUAAUUUUGACAUAACAGACAUGAACAGACAUAAGAACGGCUUCCAAUGUUAAUUGAUAAU", "RBNS enrichment (R)": 0.621}
{"Oligonucleotide": "ACAUAUUGAUAGGUAUAACAUAAUUAAGGUUUAAAAAAAAUUAGACAUAGUUAUUCAGAUUUAGGACCAGUAAGGAUAGAACUUUCUCUUAUUUAUGAAAAAAAAUGCUA", "RBNS enrichment (R)": 0.975}
{"Oligonucleotide": "ACUUGUUUGGUACUGGAGUAAAGGUGACUCUUGCUAUAUUUUAGCAAAGAGACUGGCUGCAUUUUGCCCCUGCCCUAGAGAUUUGUGGAACUUUGAACUCGAGGGAGAUG", "RBNS enrichment (R)": 1.17}
{"Oligonucleotide": "UCCUCCGCUAGUCCCUGUGUCCUUCCUGGGCACGGGGUGAGAGCUGUAGAAGCGGUGGGGGCACAGCUAGCCACAGUUUUUCCUUUUCCCUACCUUAGUCUGACAGAGGA", "RBNS enrichment (R)": 0.332}
{"Oligonucleotide": "ACAGAGUGAUUGUAGUUUAAUACAGGAACACACAGGGCUGUGUAGCAUGAUACCAGGCCCAGGAGAUCAGUAAUUACAAAUUAAGGGUUAAAUCAGAGAUUAUUCAACAG", "RBNS enrichment (R)": 14}
{"Oligonucleotide": "UUAAAGAUCAAAUUAUUUGACUAUUGCUAGACAUUUCUAUACUCUGUUGUAACACUGAGGUAUCUCAUUUGCCCAUGUUAAUUUUUUUCUAAAUAAAUUGACAAAAACAA", "RBNS enrichment (R)": 0.341}
{"data": "Set 2", "target": "Eukaryotic initiation factor 4A-I (EIF4A1, Homo sapiens, UniProt P60842, residues 1-406, full length assumed)", "technique": "RNA Bind-n-Seq", "molecule type": "RNA", "matrix": "in vitro", "tested at": "90 pmol", "notes": "4-mer, random 30-nt RNA, single round", "added": "3 µM DMDA-PatA, 2 mM ADP, 2 mM phosphate", "relative to": "input library", "direction": "higher = stronger binding", "sequence of UniProt P60842 (whole entry, looked up)": "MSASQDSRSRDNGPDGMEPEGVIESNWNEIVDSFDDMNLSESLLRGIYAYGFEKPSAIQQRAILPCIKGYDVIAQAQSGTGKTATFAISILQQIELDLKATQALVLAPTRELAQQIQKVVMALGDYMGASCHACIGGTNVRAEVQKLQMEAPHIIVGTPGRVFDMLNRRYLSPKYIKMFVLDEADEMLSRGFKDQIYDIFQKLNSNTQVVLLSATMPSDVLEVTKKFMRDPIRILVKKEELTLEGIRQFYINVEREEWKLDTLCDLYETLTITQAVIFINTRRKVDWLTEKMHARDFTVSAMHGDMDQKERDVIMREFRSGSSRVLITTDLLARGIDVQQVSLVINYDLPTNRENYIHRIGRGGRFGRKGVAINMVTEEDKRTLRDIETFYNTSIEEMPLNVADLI"}
{"Oligonucleotide": "GCCA", "4-mer enrichment": "0.613 fold"}
{"Oligonucleotide": "AUCU", "4-mer enrichment": "0.653 fold"}
{"Oligonucleotide": "AUAA", "4-mer enrichment": "1.02 fold"}
{"Oligonucleotide": "GGCA", "4-mer enrichment": "0.919 fold"}
{"Oligonucleotide": "AAGU", "4-mer enrichment": "1.26 fold"}
{"Oligonucleotide": "CAGA", "4-mer enrichment": "0.86 fold"}
{"Oligonucleotide": "CUUG", "4-mer enrichment": "0.658 fold"}
{"Oligonucleotide": "ACAA", "4-mer enrichment": "0.894 fold"}
{"data": "Set 3", "Variant": "E151R", "target": "ABI1, truncated, D143A, DHFR fusion (Arabidopsis thaliana)", "technique": "DHFR PCA, deep sequencing", "matrix": "yeast", "notes": "methotrexate growth selection, single substitutions", "relative to": "wild-type fitted maximum", "direction": "higher = stronger binding", "starting sequence": "PYL1, truncated, DHFR fusion (Arabidopsis thaliana); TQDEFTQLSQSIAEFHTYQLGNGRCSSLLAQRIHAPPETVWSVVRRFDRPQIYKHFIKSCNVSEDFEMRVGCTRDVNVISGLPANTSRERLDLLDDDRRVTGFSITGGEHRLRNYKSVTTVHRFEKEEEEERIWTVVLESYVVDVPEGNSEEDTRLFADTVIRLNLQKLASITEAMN"}
{"added": "(+)-ABA 58 µM", "relative binding score": "77.9%"}
{"added": "(+)-ABA 0.11 µM", "relative binding score": "23.3%"}
{"added": "(+)-ABA 0.032 µM", "relative binding score": "15.8%"}
{"added": "(+)-ABA 0.39 µM", "relative binding score": "30.6%"}
{"added": "(+)-ABA 17 µM", "relative binding score": "76.3%"}
{"added": "(+)-ABA 2500 µM", "relative binding score": "95.1%"}
{"data": "Single results of other studies"}
{"Compound": "FC(F)(F)c1ccc(/C=C/c2nc(COc3ccc(CCCCn4ccnn4)cc3)co2)cc1", "target": "Serine/threonine-protein kinase Chk2 (CHEK2, Homo sapiens, UniProt O96017)", "observed": "enzyme activity", "mode": "inhibitor", "tested at": "0.5 µM", "relative to": "control", "endpoint": "remaining activity", "value": "103%"}
{"note": "Some of these lines once more (set 2):"}
{"Oligonucleotide": "AAGU", "4-mer enrichment": "1.26 fold"}
{"Oligonucleotide": "CAGA", "4-mer enrichment": "0.86 fold"}
{"Oligonucleotide": "CUUG", "4-mer enrichment": "0.658 fold"}
